Assay results from different studies.
A part holds a random share of what one study measured.

Study 1
Target: Replicase polyprotein 1ab, polymerase (rep, Severe acute respiratory syndrome coronavirus 2, UniProt P0DTD1)
Observed: enzyme activity
Action: inhibitor
Concentration: 20 µM
Endpoint: inhibition
Cn1c(COP(=O)(NCCBr)NCCBr)cnc1[N+](=O)[O-]: -7.49%
C=C1CC[C@H](O)C/C1=C/C=C1\CCC[C@]2(C)[C@@H]([C@H](C)CCCC(C)C)CC[C@@H]12: 14.7%
CCc1cncnc1N1CCN(Cc2nc3ccc(C(F)(F)F)cc3[nH]2)CC1: 0.27%
CC1=C(/C=C/C(=C/C=C/C(C)=C/C(=O)O)c2ccc(C)cc2)C(C)(C)CCC1: -0.1%
CC(=O)SC[C@@H](C)C(=O)N1CCC[C@H]1C(=O)N[C@@H](Cc1ccccc1)C(=O)O: 1.56%
COCCNC(=O)COc1ccc(OCCNC[C@H](O)COc2ccccc2)cc1: -3.01%
Nc1[nH]nc2nc3ccccc3nc12: -9.54%
CC(=O)CCCCn1c(=O)c2c(ncn2C)n(C)c1=O: -0.73%
CCCNC(=O)N1N=C(c2ccc(N)cc2)c2cc3c(cc2C1C)OCO3 (centres unmarked): -1.52%
O=c1n(Cl)c(=O)n(Cl)c(=O)n1Cl: 4.62%
COc1cc(C[C@@H](CO[C@@H]2O[C@H](CO)[C@@H](O)[C@H](O)[C@H]2O)[C@H](CO[C@@H]2O[C@H](CO)[C@@H](O)[C@H](O)[C@H]2O)Cc2ccc(O)c(OC)c2)ccc1O: -3.81%
Clc1cc(Cl)c(OCC#CI)cc1Cl: 1.32%
OCCNC1CCCc2c1[nH]c1ccc(-c3ccccc3)cc21 (centres unmarked): -4.74%
CC(C)[C@@H]1C(=O)N(S(C)(=O)=O)[C@@H]2CCN(C(=O)/C=C/CN3CCCCC3)[C@H]21: -1.06%
Cc1c(OCC(F)(F)F)ccnc1C[S+]([O-])c1nc2ccccc2[nH]1 (centres unmarked): 1.55%
Cc1ccc(Cl)cc1N(CC(=O)Nc1c(F)cccc1F)S(C)(=O)=O: -2.43%
CC(C(=O)O)c1cccc(Oc2ccccc2)c1 (centres unmarked): 22.2%
C[C@H]1[C@H](C)CC[C@]2(C(=O)O)CC[C@]3(C)C(=CC[C@@H]4[C@@]5(C)CC[C@H](O)C(C)(C)[C@@H]5CC[C@]43C)[C@H]12: 1.63%
CCOc1cc(C=O)ccc1O: -3.14%
COC(=O)/C=C/C(=O)OC: -2.93%
Cc1c(C(N)=O)cc([N+](=O)[O-])cc1[N+](=O)[O-]: -5.68%
O=c1[nH]c2ccccc2n1CCN1CCN(c2cccc(C(F)(F)F)c2)CC1: 3.09%
Nc1nc(N)c2nc(-c3ccccc3)c(N)nc2n1: 0.13%
CC[C@@H]([C@H](C)O)n1ncn(-c2ccc(N3CCN(c4ccc(OC[C@@H]5CO[C@@](Cn6cncn6)(c6ccc(F)cc6F)C5)cc4)CC3)cc2)c1=O: -2.16%
COc1ccc(Cc2cnc(N)nc2N)cc1OC: -6.41%

Study 2
Target: PABPC1L2, full length, GST fusion (mouse, UniProt A0ABA7IW68)
Method: RNAcompete
Molecule type: RNA
Matrix: in vitro
Concentration: 20 nM
Setting: 7-mer, probes averaged, single round
Baseline: mean of 7-mers
Direction: higher = stronger binding
Endpoint: 7-mer Z-score
Residues (chain): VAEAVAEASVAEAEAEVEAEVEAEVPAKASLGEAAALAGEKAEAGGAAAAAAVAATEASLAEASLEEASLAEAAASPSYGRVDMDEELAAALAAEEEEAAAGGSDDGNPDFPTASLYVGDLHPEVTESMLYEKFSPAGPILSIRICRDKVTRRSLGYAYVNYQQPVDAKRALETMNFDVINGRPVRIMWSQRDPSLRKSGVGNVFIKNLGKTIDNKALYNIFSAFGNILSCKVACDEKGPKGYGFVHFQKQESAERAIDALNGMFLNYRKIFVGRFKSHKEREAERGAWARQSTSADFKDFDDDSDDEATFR
UGCAGUC: -0.206
CACGCCC: -0.242
CGCCUUA: -0.222
UUGCGUG: -0.302
UGCUAGA: 0.0569
UGGACCC: 0.0116
UUUAUCG: 0.0587
UAUCAGC: -0.244

Study 3
Target: Replicase polyprotein 1ab, main protease (rep, Severe acute respiratory syndrome coronavirus 2, UniProt P0DTD1)
Observed: enzyme activity
Action: inhibitor
Concentration: 20 µM
Setting: primary screen
Endpoint: inhibition
O=[N+]([O-])c1ccc(O)c2ncccc12: 27.4%
CCCCCCNC(=O)n1cc(F)c(=O)[nH]c1=O: 101%
CCOC(=O)Cc1ccc(-c2ccccc2)cc1: 96.2%
CC[C@]12C=CCN3CC[C@@]4(c5cc([C@@]6(C(=O)OC)C[C@@H]7C[C@@H](C(C)(F)F)C[N@](CCc8c6[nH]c6ccccc86)C7)c(OC)cc5N(C)[C@H]4[C@@](O)(C(=O)OC)[C@@H]1OC(C)=O)[C@@H]32: 92%

Study 4
Target: Centromere-binding protein 1, full length, N-terminal tag (CBF1, Saccharomyces cerevisiae, UniProt P17106, residues 1-351)
UniProt P17106, sequence (whole entry, looked up): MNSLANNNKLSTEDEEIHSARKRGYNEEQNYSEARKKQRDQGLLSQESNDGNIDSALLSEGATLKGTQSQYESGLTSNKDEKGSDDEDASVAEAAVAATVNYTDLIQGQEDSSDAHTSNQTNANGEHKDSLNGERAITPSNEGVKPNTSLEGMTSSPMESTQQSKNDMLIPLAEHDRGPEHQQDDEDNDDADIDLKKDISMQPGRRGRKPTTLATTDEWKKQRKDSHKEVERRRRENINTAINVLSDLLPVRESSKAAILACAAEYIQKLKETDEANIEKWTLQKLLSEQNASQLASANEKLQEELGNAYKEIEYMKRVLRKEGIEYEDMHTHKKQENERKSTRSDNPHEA
Method: protein-binding microarray
Molecule type: double-stranded DNA, one strand shown
Matrix: in vitro
Concentration: 0.8 µM
Setting: whole 60-bp probe, no competitor
Direction: higher = stronger binding
Endpoint: fluorescence intensity
All sequences stand within: … GTCTTGATTCGCTTGACGCTGCTG
GAAACGCGTAAACGTGATGTGATATACGGAAGATAG: 2570 a.u.
CTAGAAACTATGCTGTGTGTGACCAGGCGAACATTC: 614 a.u.
CTAGCCGATTCTAATCATGTGACTCCTTTTCCCTTC: 8230 a.u.
GAATCTTCCAGCTTAAACGTGCTTCGTCACTCGTAG: 553 a.u.
GAAAGGAACCTTATCGACGTGACAGCAAAGCGGTAG: 612 a.u.
CTACCCAACAATTACATCAGAACCCACACTCTCTTC: 520 a.u.
GAACAAATGCATCTGCAGGTGTGCTTCCATTATTAG: 553 a.u.
CTAAAACCGAGAGGTGACGTGAAATTCTTCCCATTC: 549 a.u.

Study 5
Target: Interferon regulatory factor 3, full length, phosphomimetic (IRF3, Homo sapiens, UniProt Q14653, residues 1-427, S386D/S396D/S398D/S402D/T404D/S405D)
Method: protein-binding microarray
Molecule type: double-stranded DNA, one strand shown
Matrix: in vitro
Concentration: 2540 nM top
Setting: 60-bp whole probe
Added: salmon DNA 0.4 mg/ml
Baseline: random background probes
Direction: higher = stronger binding
Endpoint: fitted relative affinity
All sequences stand within: GCCTAGCAC … GTCTTGATTCGCTTGACGCTGCTG
Target sequence (chain): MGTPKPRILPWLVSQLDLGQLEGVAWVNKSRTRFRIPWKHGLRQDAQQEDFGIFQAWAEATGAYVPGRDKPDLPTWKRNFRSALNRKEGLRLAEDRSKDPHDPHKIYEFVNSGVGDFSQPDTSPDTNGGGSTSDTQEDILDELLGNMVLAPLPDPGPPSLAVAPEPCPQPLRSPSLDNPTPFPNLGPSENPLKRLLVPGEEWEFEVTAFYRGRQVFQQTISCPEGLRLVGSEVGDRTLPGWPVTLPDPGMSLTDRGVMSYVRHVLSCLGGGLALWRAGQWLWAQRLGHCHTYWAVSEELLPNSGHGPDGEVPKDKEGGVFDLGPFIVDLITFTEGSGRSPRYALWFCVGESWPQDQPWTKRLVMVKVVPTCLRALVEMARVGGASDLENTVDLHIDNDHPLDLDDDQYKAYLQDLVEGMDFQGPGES
TCATCTCTTGTTCTCTCACTGTGCTAG: 0.909 z-score
ATATATATATATACAGATATGTGCTAG: 0.876 z-score
TTAGATTTCAGTCTCGAGTAGTGCTAG: 2.14 z-score
CTTCATGTTGCTCTCCGGGGGTGCTAG: 0.158 z-score
GACGATTTCGGGAGTGGAGACGTGCTA: 1.18 z-score
GACGGTATCGGTCTAGGGACGTGCTAG: 3.27 z-score
TTAGAACTGAGACTGGCTTAGTGCTAG: -0.557 z-score
GACGGTCTCGATCTCGGGACGTGCTAG: 1.17 z-score

Study 6
Cell line: HEK-293T
Observed: pseudovirus infection
Method: FDA-approved drug library screen
Organism: VSV pseudotyped with SARS-CoV-2 spike
Concentration: 10 µM
Time: 16 h
Baseline: vehicle-treated
Endpoint: GFP-positive cells
O=C(O)c1cc(=O)c2c(OCC(O)COc3cccc4oc(C(=O)O)cc(=O)c34)cccc2o1: 76.1%
COCCOC(=O)C1=C(C)NC(C)=C(C(=O)OC(C)C)C1c1cccc([N+](=O)[O-])c1 (centres unmarked): 108%
C[C@H]1C[C@@H]2[C@H]([C@@H](O)C[C@@]3(C)[C@H]2CC[C@]3(O)C(=O)CO)[C@@]2(C)C=CC(=O)C=C12: 96.2%

A few entries again (study 1):
Clc1cc(Cl)c(OCC#CI)cc1Cl: 1.32%
CCOc1cc(C=O)ccc1O: -3.14%
COC(=O)/C=C/C(=O)OC: -2.93%
CCc1cncnc1N1CCN(Cc2nc3ccc(C(F)(F)F)cc3[nH]2)CC1: 0.27%
CC(C)[C@@H]1C(=O)N(S(C)(=O)=O)[C@@H]2CCN(C(=O)/C=C/CN3CCCCC3)[C@H]21: -1.06%
Cc1c(OCC(F)(F)F)ccnc1C[S+]([O-])c1nc2ccccc2[nH]1 (centres unmarked): 1.55%
CC(=O)CCCCn1c(=O)c2c(ncn2C)n(C)c1=O: -0.73%
CC(=O)SC[C@@H](C)C(=O)N1CCC[C@H]1C(=O)N[C@@H](Cc1ccccc1)C(=O)O: 1.56%
